Results collected from several papers.
Numbered parts are unrelated; each lists some results of a single study. Several values in a cell are separate wells, animals, samples, runs or records.
UniProt P06239, sequence (whole entry, looked up): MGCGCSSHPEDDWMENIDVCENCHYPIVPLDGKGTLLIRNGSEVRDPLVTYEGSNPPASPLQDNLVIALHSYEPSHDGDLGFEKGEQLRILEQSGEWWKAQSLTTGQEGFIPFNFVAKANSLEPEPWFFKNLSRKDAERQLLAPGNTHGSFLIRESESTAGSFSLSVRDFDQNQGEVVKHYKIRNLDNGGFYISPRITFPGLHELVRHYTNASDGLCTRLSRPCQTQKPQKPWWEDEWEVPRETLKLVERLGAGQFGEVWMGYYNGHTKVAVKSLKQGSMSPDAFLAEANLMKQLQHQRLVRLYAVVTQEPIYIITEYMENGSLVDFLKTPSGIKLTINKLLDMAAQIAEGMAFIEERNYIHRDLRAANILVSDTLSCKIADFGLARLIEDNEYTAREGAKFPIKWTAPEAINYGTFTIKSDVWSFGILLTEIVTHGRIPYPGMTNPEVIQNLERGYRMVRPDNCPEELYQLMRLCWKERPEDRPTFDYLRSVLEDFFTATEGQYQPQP
UniProt P22607, sequence (whole entry, looked up): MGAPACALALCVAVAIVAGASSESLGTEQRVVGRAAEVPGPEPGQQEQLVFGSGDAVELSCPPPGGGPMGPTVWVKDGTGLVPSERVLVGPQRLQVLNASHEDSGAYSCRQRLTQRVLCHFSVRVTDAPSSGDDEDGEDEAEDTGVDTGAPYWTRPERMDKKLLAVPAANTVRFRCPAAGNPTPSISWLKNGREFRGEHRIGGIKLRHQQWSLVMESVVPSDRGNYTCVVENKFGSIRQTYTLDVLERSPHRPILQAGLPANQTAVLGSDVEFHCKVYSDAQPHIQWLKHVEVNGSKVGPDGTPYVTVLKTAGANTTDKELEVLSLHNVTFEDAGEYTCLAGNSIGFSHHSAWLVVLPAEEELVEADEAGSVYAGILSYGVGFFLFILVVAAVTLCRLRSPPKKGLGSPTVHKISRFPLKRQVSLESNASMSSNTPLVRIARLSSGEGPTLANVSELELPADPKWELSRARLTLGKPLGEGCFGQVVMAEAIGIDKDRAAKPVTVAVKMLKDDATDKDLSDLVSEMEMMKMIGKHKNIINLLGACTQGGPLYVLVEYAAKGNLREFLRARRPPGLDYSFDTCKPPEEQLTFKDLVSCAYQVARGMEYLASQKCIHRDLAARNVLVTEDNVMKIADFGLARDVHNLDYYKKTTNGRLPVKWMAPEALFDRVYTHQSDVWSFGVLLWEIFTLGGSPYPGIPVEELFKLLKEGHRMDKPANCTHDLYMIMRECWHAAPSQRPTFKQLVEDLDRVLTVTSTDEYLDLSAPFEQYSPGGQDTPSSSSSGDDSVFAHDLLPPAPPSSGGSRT
UniProt Q9Y2I7, sequence (whole entry, looked up): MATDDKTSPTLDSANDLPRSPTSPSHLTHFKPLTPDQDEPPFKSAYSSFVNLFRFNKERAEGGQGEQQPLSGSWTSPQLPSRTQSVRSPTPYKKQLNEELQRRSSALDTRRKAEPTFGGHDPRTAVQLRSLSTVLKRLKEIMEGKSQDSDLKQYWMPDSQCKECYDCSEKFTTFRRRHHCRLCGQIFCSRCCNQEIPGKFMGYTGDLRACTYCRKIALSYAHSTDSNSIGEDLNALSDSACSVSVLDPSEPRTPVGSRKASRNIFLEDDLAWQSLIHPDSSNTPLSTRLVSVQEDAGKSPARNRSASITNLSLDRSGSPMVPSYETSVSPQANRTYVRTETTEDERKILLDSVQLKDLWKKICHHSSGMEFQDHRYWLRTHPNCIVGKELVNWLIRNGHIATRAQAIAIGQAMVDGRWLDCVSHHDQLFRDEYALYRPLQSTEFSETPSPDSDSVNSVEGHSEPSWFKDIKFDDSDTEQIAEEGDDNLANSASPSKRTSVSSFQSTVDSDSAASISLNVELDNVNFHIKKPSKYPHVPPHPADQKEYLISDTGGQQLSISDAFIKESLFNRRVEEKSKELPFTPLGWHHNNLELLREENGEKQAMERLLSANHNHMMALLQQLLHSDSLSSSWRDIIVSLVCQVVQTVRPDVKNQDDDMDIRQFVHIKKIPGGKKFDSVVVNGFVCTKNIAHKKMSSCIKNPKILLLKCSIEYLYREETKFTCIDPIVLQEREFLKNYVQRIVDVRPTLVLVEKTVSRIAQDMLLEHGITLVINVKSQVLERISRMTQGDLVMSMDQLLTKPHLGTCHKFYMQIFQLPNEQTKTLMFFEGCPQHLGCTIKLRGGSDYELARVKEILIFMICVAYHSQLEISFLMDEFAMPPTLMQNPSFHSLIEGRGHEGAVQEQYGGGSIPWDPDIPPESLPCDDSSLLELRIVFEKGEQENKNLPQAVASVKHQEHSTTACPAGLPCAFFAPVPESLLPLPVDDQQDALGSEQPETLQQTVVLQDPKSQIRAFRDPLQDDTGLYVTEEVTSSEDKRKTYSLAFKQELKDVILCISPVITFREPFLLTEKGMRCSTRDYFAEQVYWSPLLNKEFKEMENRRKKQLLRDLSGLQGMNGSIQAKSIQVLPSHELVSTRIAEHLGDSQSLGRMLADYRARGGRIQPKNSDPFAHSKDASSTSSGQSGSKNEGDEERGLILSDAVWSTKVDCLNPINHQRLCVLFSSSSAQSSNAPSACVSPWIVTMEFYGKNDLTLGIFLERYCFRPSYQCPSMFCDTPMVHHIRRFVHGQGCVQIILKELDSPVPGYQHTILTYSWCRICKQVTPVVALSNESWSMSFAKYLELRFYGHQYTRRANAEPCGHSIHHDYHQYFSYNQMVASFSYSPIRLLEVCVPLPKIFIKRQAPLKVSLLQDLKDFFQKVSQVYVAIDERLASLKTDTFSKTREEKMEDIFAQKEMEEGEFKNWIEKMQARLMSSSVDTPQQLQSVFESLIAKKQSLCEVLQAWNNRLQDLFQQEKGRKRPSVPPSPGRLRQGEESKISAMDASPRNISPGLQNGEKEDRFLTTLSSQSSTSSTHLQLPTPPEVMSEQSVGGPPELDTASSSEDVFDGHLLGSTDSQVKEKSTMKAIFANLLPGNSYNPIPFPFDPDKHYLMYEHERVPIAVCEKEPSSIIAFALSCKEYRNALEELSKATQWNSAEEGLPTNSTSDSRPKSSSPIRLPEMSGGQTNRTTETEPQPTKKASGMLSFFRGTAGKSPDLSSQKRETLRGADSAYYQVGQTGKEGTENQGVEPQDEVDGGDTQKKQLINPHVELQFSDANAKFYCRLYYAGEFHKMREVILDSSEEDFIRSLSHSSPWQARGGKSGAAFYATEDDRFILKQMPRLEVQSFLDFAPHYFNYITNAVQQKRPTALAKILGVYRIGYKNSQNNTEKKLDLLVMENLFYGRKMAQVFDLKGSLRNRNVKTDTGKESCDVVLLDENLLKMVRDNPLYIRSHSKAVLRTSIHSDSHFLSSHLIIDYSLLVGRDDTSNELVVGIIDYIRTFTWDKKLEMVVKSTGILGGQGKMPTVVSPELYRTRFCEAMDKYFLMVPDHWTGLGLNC
UniProt Q13464, sequence (whole entry, looked up): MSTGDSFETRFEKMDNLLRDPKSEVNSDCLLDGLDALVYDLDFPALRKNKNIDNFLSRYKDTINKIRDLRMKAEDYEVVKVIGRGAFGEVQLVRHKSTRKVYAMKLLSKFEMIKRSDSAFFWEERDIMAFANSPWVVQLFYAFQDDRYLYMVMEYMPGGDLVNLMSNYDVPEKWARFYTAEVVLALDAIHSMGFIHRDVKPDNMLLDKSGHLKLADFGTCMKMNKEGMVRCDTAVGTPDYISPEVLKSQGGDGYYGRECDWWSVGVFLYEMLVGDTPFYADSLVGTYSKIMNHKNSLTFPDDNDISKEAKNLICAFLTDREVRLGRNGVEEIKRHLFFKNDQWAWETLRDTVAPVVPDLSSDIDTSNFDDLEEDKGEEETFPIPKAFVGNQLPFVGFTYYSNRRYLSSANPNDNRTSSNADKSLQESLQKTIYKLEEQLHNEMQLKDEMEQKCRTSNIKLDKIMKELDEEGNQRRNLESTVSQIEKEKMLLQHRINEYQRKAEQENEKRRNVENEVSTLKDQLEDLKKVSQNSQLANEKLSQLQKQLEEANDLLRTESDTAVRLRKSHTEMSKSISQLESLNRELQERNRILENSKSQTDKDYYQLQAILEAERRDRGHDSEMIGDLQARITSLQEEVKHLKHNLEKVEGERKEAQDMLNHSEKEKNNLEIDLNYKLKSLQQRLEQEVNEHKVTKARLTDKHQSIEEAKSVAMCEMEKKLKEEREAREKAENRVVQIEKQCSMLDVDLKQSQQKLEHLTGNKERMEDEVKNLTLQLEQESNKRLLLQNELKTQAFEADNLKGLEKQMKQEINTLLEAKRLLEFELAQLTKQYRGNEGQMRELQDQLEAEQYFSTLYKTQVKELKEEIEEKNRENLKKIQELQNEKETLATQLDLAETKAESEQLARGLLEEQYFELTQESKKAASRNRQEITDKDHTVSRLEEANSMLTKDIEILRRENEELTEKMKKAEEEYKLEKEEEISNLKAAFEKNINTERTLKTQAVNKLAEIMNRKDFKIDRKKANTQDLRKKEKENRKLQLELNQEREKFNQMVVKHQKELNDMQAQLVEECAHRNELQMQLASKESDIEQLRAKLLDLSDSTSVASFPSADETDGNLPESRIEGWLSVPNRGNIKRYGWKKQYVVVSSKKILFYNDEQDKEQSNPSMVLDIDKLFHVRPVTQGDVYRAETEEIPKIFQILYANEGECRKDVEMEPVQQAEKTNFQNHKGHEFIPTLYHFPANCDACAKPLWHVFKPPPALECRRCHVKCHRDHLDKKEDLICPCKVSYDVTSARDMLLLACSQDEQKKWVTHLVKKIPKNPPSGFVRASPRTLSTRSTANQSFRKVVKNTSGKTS

Series 1 — SMILES: COc1cccc(-c2cc(=O)c3ccccc3o2)c1N; read-out: enzyme activity; action: inhibitor; concentration: 0.5 µM; baseline: control; quantity: remaining activity
ARAF (Homo sapiens, UniProt P10398): 98.9%
MAPK3 (Homo sapiens, UniProt P27361): 102%
FGFR3 (Homo sapiens, UniProt P22607): 91%
FGFR1 (Homo sapiens, UniProt P11362): 96.8%
LCK (Homo sapiens, UniProt P06239): 99%
MAP3K5 (Homo sapiens, UniProt Q99683): 103%
GRK7 (Homo sapiens, UniProt Q8WTQ7): 103%
ULK3 (Homo sapiens, UniProt Q6PHR2): 94.6%
ABL2 (Homo sapiens, UniProt P42684): 96.8%
EPHA3 (Homo sapiens, UniProt P29320): 96.3%
FRK (Homo sapiens, UniProt P42685): 89.5%
MAP3K14 (Homo sapiens, UniProt Q99558): 108%
CSNK1G2 (Homo sapiens, UniProt P78368): 98.4%
ULK2 (Homo sapiens, UniProt Q8IYT8): 109%
TEK (Homo sapiens, UniProt Q02763): 93.1%

Series 2 — organism: Sarcocystis neurona; read-out: parasite growth; concentration: concentration not given; quantity: inhibition
CC(N/C(=N\C#N)Nc1ccncc1)C(C)(C)C.O (stereo not shown): -6.7%
CC1=C(C(=O)O)N2C(=O)[C@@H](NC(=O)[C@H](N)c3ccccc3)[C@H]2SC1.O: -6.9%
CN(C)CC[C@@H](c1ccc(Br)cc1)c1ccccn1.O=C(O)/C=C\C(=O)O (single isomer, unassigned): -5.9%
C#C[C@]1(O)CC[C@H]2[C@@H]3CCC4=CC(=O)CC[C@@H]4[C@H]3CC[C@@]21C: -11.8%
CC(Cc1ccccc1)(NC(=O)CN)c1ccccc1.Cl (stereo not shown): -5.2%
CC[C@@H](CO)NCCN[C@@H](CC)CO: -11.9%
O=C(N[C@H](CO)[C@H](O)c1ccc([N+](=O)[O-])cc1)C(Cl)Cl: 1.8%
C[C@]12C=CC(=O)C=C1CC[C@@H]1[C@@H]2[C@@H](O)C[C@@]2(C)[C@H]1CC[C@]2(O)C(=O)COC(=O)CCC(=O)[O-].[Na+]: -8.5%
CN1CCN(c2nc3cc(C(F)(F)F)ccc3n3cccc23)CC1: -6.2%

Series 3 — read-out: binding; action: competitor; method: NanoBRET; cells: HEK293; concentration: 33.3 µM; quantity: normalized BRET
Target: GTPase KRas (KRAS, Homo sapiens, UniProt P01116, Q61R)
CC(C)C(=O)N1CCN(c2nc(OC[C@@H]3CCCN3C)nc3c2CCN(c2cccc4cccc(Cl)c24)C3)C[C@@H]1CC#N: 142% and 118% and 134%
CN1CCC[C@H]1COc1nc2c(c(N3CCN(S(C)(=O)=O)[C@@H](CC#N)C3)n1)CCN(c1cccc3cccc(Cl)c13)C2: 64.8% and 94.6% and 62.4%
CC(=O)N1CCN(c2nc(OC[C@@H]3CCCN3C)nc3c2CCN(c2cccc4cccc(Cl)c24)C3)C[C@@H]1CC#N: 105% and 128% and 84.9%

Series 4 — read-out: cell-free assay; method: competition with immobilised ligand; concentration: 1 µM; quantity: remaining binding
Structure (SMILES): O=C(NS(=O)(=O)c1ccc(NCC2CCOCC2)c([N+](=O)[O-])c1)c1ccc(N2CCN(Cc3ccc(C(F)(F)F)cc3-c3ccc(Cl)cc3)CC2)cc1Oc1cnc2[nH]ccc2c1
NEK10 (Homo sapiens, UniProt Q6ZWH5): 100%
PRKG1 (Homo sapiens, UniProt Q13976): 96%
EGFR (Homo sapiens, UniProt P00533, del752-759): 81%
ROCK1 (Homo sapiens, UniProt Q13464): 100%
EPHA5 (Homo sapiens, UniProt P54756): 76%
KIT (Homo sapiens, UniProt P10721, A829P): 99%
PIKFYVE (Homo sapiens, UniProt Q9Y2I7): 100%

Some of these lines once more (series 2):
C#C[C@]1(O)CC[C@H]2[C@@H]3CCC4=CC(=O)CC[C@@H]4[C@H]3CC[C@@]21C: -11.8%
CC(Cc1ccccc1)(NC(=O)CN)c1ccccc1.Cl (stereo not shown): -5.2%
CC[C@@H](CO)NCCN[C@@H](CC)CO: -11.9%
O=C(N[C@H](CO)[C@H](O)c1ccc([N+](=O)[O-])cc1)C(Cl)Cl: 1.8%
C[C@]12C=CC(=O)C=C1CC[C@@H]1[C@@H]2[C@@H](O)C[C@@]2(C)[C@H]1CC[C@]2(O)C(=O)COC(=O)CCC(=O)[O-].[Na+]: -8.5%
CN1CCN(c2nc3cc(C(F)(F)F)ccc3n3cccc23)CC1: -6.2%
